Published values gathered from unrelated publications.
Each line is one published result; not all experiments were run side by side. Values joined by “and” are separate records of one study, mostly repeats; a detail may differ. Numbers after ± are the reported error.
VHL with Elongin B/C: von Hippel-Lindau disease tumor suppressor, with Elongin B/C (VHL, Homo sapiens, UniProt P40337)
T1: FMN riboswitch RNA (Escherichia coli); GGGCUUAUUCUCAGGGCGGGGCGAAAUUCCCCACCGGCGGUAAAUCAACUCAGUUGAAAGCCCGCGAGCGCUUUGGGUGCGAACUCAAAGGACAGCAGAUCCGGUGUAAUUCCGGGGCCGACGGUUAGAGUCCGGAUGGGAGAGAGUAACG

`CN1CCC(CCNC(=O)c2ccc(C3(NC(=O)c4cc5cc(C(=O)O)cnc5n4C)CC3)cc2)CC1` gave a Kd of 15 nM (T1, FMN riboswitch RNA (Escherichia coli); ITC; KCl 100 mM).
`COC(=O)c1ccc(CNC(=O)[C@@H]2C[C@@H](O)CN2C(=O)Cc2cc(C)no2)cc1`: “binding enthalpy (ΔH)” -9.99 ± 0.22 kcal/mol (VHL with Elongin B/C; isothermal titration calorimetry; concentration not given, 25 °C).
Under “proteasome peptidase activity”, `Cc1ccnc(-c2cc(C(=O)NCCCCn3cc(CN(CC(N)=O)C(=O)CN(CCCCN)C(=O)CN(CCCCN)C(=O)CN(C(=O)CN(CC(C)C)C(=O)CN(CC(C)C)C(=O)CN(CCc4c[nH]c5ccccc45)C(=O)CN(CCCCN)C(=O)C(N)CCCCNC(=O)CCCCCNc4ncnc5[nH]cnc45)C(C)c4ccccc4)nn3)ccn2)c1` (stereo not drawn) is recorded as “no effect” (PSMC6 (Homo sapiens, UniProt P62333); HeLa; concentration not given, in the dark).
For `CNc1ccccc1C(=O)O[C@H]1C[C@H](n2cnc3c(N)ncnc32)O[C@@H]1COP(=O)(O)OP(=O)(O)O`, “association rate constant” read 2.01e+06 ± 140000 M⁻¹ s⁻¹ (Unconventional myosin-Va (Gallus gallus, UniProt Q02440, D297C/G292C/I296C/S293C/V295G); stopped-flow FRET; 4 °C, added: EDTA 4 mM).
For `N#CCCC1CCN(C(=S)c2ccc(-c3cc(Cl)ccc3Cl)o2)CC1`, cGMP production read “no effect” (Atrial natriuretic peptide receptor 1 (Homo sapiens, UniProt P16066); activator, ELISA; HEK293 cells expressing GC-A; concentration not given, added: ANP 100 pM).
Under “specific binding ratio”, `[3H]C([3H])([3H])c1cnccc1CN1C[C@@H](c2cc(F)c(F)c(F)c2)CC1=O` is recorded as about 1.7 fold (SV2A (Homo sapiens, UniProt Q7L0J3); radioligand binding; frontal cortex P2 fraction; relative to: control over Alzheimer disease).
`Nc1ncnc2c1ncn2[C@@H]1O[C@H](CO)[C@@H](O[C@H]2O[C@H](CO)[C@@H](OP(=O)(O)O)[C@H](OP(=O)(O)O)[C@H]2O)[C@H]1O` has a Hill coefficient of 0.9 ± 0.4 (Inositol 1,4,5-trisphosphate-gated calcium channel ITPR1, N-terminal region (Itpr1, Rattus norvegicus, UniProt P29994, del318-332); [3H]IP3 competition binding; N-terminal fragment; cytosol-like medium).
`C=C1C(=O)O[C@@H]2[C@H]3C(CO)=CC(=O)C3=C(C)C[C@H](O)[C@@H]12` — result for “number of binding sites”: 0.78 (MAL12 (Saccharomyces cerevisiae S288c, UniProt P53341); fluorescence quenching; concentration not given, 310 K).
`Cn1ccc2c(N3CCN(CCCCOc4ccc5c(c4)NC(=O)CC5)CC3)cccc21`: “time to peak” 15 to 60 min (D(2) dopamine receptor, long isoform (DRD2, Homo sapiens, UniProt P14416); arrestin recruitment, BRET time course; human cells).
For `O=C(O)[C@H]1O[C@@H](O[C@@H]2c3cc4ccc5cccc6c7ccccc7c(c3C=C[C@H]2O)c4c56)[C@H](O)[C@@H](O)[C@@H]1O`, the kcat was 0.00283 ± 6.67e-05 s⁻¹ (UGT1A10 (Homo sapiens, UniProt Q9HAW8); glucuronidation, substrate; UGT-expressing HEK293 homogenate; normalized to UGT expression).
`Cc1cccc(-c2nc(Nc3nc4ccccc4o3)ncc2C#N)c1` has a maximal response of 3.6 ± 1.1% (Grm5 (Rattus norvegicus, UniProt P31424); calcium mobilization, negative allosteric modulator; added: glutamate EC80; relative to: maximal glutamate response).
For `O=C(Nc1ccc(C(F)(F)F)cc1Cl)c1cc(Cl)ccc1O`, “AR variant protein level” read “inhibited” (Androgen receptor, AR-V7 isoform (AR, Homo sapiens, UniProt P10275); Western blot; CWR22Rv1; 1 µM, 16 h).
The capping efficiency of `C[n+]1cn(C2OC(COP(=O)(O)OP(=O)([O-])OP(=O)(O)OCC3OC(n4cnc5c(=O)[nH]c(N)nc54)C(O)C3O)C(O)C2O)c2nc(NCc3ccc(Cl)cc3)[nH]c(=O)c21` (stereo not drawn) is reported as 88.2% and ~90% (DNA-directed RNA polymerase (Enterobacteria phage SP6, UniProt P06221); in vitro transcription, densitometry; short RNA).
The % Rmax of `Cc1ncsc1-c1ccc(CNC(=O)[C@@H]2C[C@@H](O)CN2C(=O)[C@@H](NC(=O)COCC(C)(COCCOCCOCCNC(=O)C[C@@H]2N=C(c3ccc(Cl)cc3)c3c(sc(C)c3C)-n3c(C)nnc32)COCCOCCOCCNC(=O)C[C@@H]2N=C(c3ccc(Cl)cc3)c3c(sc(C)c3C)-n3c(C)nnc32)C(C)(C)C)cc1` is reported as 52% (VHL with Elongin B/C; binding to VCB, SPR).
`COc1ccc(-c2cc(C(F)(F)F)nc(NCc3ccccc3)n2)cc1` has an Emax of 29 ± 8.6% (GLP1R (Homo sapiens, UniProt P43220); cAMP accumulation, positive allosteric modulator; HEK-293T overexpressing GLP1R; added: EC20 GLP-1).
`O=C(c1cc2c(s1)CCCCC2)N1CCC(n2c(=O)[nH]c3ccccc32)CC1` gave a current ratio of 4.8 ± 1.23 (Trpc6 (Mus musculus, UniProt Q61143, E672D); ion current, agonist, whole-cell patch clamp; E672D mutant; relative to: 3 µM over 1 µM).
`Nc1ncnc2c1ncn2[C@@H]1O[C@H](COP(=O)(O)OP(=O)(O)NP(=O)(O)O)[C@@H](O)[C@H]1O`: “AdoMet burst rate constant” 0.021 ± 0.007 s⁻¹ (MAT2A (Homo sapiens, UniProt P31153); substrate; enzyme 25 µM, added: methionine).
For `COc1ccc2c(C=O)c(O)ccc2c1`, KRIT1 localisation read “decreased” (Krev interaction trapped protein 1, with HEG1 (KRIT1, Homo sapiens, UniProt O00522); KRIT1 binding to HEG1 tail, inhibitor; CHO; 75 µM).
`C=C1CN(S(=O)(=O)c2ccc(C)cc2)CCCN(Cc2ccccc2)CCCN(S(=O)(=O)c2ccc(C)cc2)C1` — result for “protein level ratio”: > 3 and 3.61 (CD4 (Homo sapiens, UniProt P01730); SILAC mass spectrometry; SUP-T1, crude membrane fraction; 10 µM, 17 h, reverse labelling; relative to: DMSO over compound).
For `[11CH3]Nc1ccc(-c2nc3ccc(O)cc3o2)cn1`, “distribution volume ratio” read 0.8 ± 0.09 (APP (Homo sapiens, UniProt P05067); binding, PET, reference Logan; control subjects, anterior cingulate cortex; relative to: cerebellum).
Under “EC50 fold increase”, `Nc1ncnc2c1ncn2C1OC(COP(=O)(O)OP(=O)(O)OCC2OC(O)C(O)C2O)C(O)C1O` (stereo not drawn) is recorded as about 20 fold (TRPM2 (Nematostella vectensis, UniProt A7T1N0, T307A); channel activation, agonist, inside-out patch clamp; T307A, 2.5 µM PIP2, added: 125 µM Ca2+; relative to: wild type).
Under “ubiquitination and degradation”, `COC(=O)C1=Cc2ccccc2S1(=O)=O` is recorded as “inhibited” (CFTR (Homo sapiens, UniProt P13569, del508-508); inhibitor, cycloheximide chase; BHK; 5 or 10 µM, 24 h, added: bortezomib).
For `CCCCCCCCSc1nc2c([nH]1)c(=S)n(C)c(=S)n2C`, the remaining activity was 86% (Androgen receptor (AR, Homo sapiens, UniProt P10275); reporter gene, antagonist, PSA-luciferase; HeLa-A6; 10 µM, 24 h, added: 5 nM dihydrotestosterone; relative to: maximal activity).
`COc1c(F)c(F)c(C(=O)N[C@H]2[C@@H](O)[C@@H](CO)O[C@@H](S[C@@H]3O[C@H](CO)[C@H](O)[C@H](NC(=O)c4c(F)c(F)c(OC)c(F)c4F)[C@H]3O)[C@@H]2O)c(F)c1F` has a ΔG of -8.676 ± 0.0717 kcal/mol (Galectin-3 (LGALS3, Homo sapiens, UniProt P17931); ITC; Kd fixed from FP).

Repeated from above:
`COC(=O)c1ccc(CNC(=O)[C@@H]2C[C@@H](O)CN2C(=O)Cc2cc(C)no2)cc1`: “binding enthalpy (ΔH)” -9.99 ± 0.22 kcal/mol (VHL with Elongin B/C; isothermal titration calorimetry; concentration not given, 25 °C).
For `N#CCCC1CCN(C(=S)c2ccc(-c3cc(Cl)ccc3Cl)o2)CC1`, cGMP production read “no effect” (Atrial natriuretic peptide receptor 1 (Homo sapiens, UniProt P16066); activator, ELISA; HEK293 cells expressing GC-A; concentration not given, added: ANP 100 pM).
`COc1ccc(-c2cc(C(F)(F)F)nc(NCc3ccccc3)n2)cc1` has an Emax of 29 ± 8.6% (GLP1R (Homo sapiens, UniProt P43220); cAMP accumulation, positive allosteric modulator; HEK-293T overexpressing GLP1R; added: EC20 GLP-1).
